{"data": "Earlier results that unrelated publications cite", "note": "Lines come from different studies, so protocols differ."}
{"SMILES": "C[C@H]1CNC(=O)c2cnn3ccc(nc23)N[C@H](C)c2cc(F)ccc2O1", "system": "human, plasma", "setting": "dose not given", "measurement": "Cmax", "value": "390 nM"}
{"SMILES": "Cn1cncc1[C@](O)(COc1ccc(C#N)cc1-c1ccc(OC(F)(F)F)cc1)c1ccc(C#N)cc1", "tested on": "FNTB", "test": "biochemical activity", "measurement": "IC50", "value": "5e-05 µM"}
{"SMILES": "Fc1ccc([C@@H]2CCNC[C@H]2COc2ccc3c(c2)OCO3)cc1", "tested on": "P-glycoprotein", "measurement": "IC50", "value": "30 µM"}
{"SMILES": "C[C@H](CS)C(=O)N1CCC[C@H]1C(=O)O", "tested on": "Cryptosporidium parvum", "test": "high-throughput screen", "setting": "concentration not given", "measurement": "activity", "value": "inactive"}
{"SMILES": "O=C(c1ccccc1)c1ccc2n1CCC2C(=O)O (centres unmarked)", "measurement": "pKa", "value": "~3.5"}
{"SMILES": "COC(=O)[C@H](c1ccccc1Cl)N1CCc2sccc2C1", "measurement": "logP", "value": 2.58}
{"SMILES": "Cc1cc(Nc2ncc(Cl)c(Nc3ccccc3S(=O)(=O)C(C)C)n2)c(OC(C)C)cc1C1CCNCC1", "system": "human, plasma", "setting": "dose not given", "measurement": "Cmax", "value": "1400 nM"}
{"SMILES": "O=C(c1cc(Cc2n[nH]c(=O)c3ccccc23)ccc1F)N1CCN(C(=O)C2CC2)CC1", "system": "human", "setting": "oral, 300 mg tablet, single dose, with: rifampicin 600 mg qd for 13 days", "how to read": "baseline: with over without rifampicin", "measurement": "Cmax ratio", "value": 2.2}
{"note": "Some of these lines once more:"}
{"SMILES": "COC(=O)[C@H](c1ccccc1Cl)N1CCc2sccc2C1", "measurement": "logP", "value": 2.58}
